Measurements of several laboratories.
Numbered parts are unrelated; each lists some results of a single study.

Set 1
Target: Interferon regulatory factor 7, full length, phosphomimetic (IRF7, Homo sapiens, UniProt Q92985, residues 1-503, S101K/S471D/S472D/S475D/S476D/S477D/S483D/S484D/S487D)
Chain of UniProt Q92985 (whole entry, unmodified, looked up): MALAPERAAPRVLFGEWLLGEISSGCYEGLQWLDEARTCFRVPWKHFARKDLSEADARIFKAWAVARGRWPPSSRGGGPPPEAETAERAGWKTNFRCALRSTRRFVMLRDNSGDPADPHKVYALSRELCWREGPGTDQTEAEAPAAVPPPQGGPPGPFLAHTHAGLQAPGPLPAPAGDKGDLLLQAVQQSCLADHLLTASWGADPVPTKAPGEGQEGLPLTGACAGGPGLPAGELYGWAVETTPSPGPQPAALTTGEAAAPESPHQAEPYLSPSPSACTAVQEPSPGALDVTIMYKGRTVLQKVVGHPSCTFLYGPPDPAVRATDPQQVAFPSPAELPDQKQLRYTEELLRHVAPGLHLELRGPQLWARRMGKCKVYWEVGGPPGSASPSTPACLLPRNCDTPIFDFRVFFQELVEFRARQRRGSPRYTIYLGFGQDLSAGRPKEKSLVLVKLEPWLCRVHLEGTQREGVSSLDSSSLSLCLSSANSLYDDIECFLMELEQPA
Method: protein-binding microarray
Molecule type: double-stranded DNA, one strand shown
Matrix: in vitro
Tested at: 250 nM
Notes: 60-bp whole probe
Together with: salmon DNA 0.4 mg/ml
Relative to: random background probes
Direction: higher = stronger binding
Constant ends, left off below: GCCTAGCAC … GTCTTGATTCGCTTGACGCTGCTG
`TTAGGACTGGACTTTCGGTTCGTGCTA` has a log fluorescence of 2.29 z-score.
`TTAGGTATCTTTTTCCTTTAGTGCTAG` has a log fluorescence of 1.6 z-score.
`TTAGATATCAGTCTCGGTTAGTGCTAG` has a log fluorescence of 1.68 z-score.
With `TCAAGAATGCCTTTAATACTGTGCTAG` the log fluorescence was -0.325 z-score.
`CTGAGGCTGCCGTGGCCATGGTGCTAG` gave a log fluorescence of -1.31 z-score.
`GACGATTTAGGGACTGGAGACGTGCTA` gave a log fluorescence of -0.489 z-score.
`TGAGGTTTCCTTATCCTTTAGTGCTAG` gave a log fluorescence of 2.09 z-score.
The log fluorescence of `GACGATTTCAGTCTCAAGACGTGCTAG` is reported as 0.179 z-score.

Set 2
Target: Prothrombin, mature alpha-thrombin (F2, Homo sapiens, UniProt P00734)
Method: aptamer microarray, sandwich
Molecule type: DNA with 2'F-ANA
Matrix: in vitro
Tested at: 200 nM
Notes: whole 15-mer aptamer, many near background
Together with: Cy3 exosite-II aptamer, 400 nM
Direction: higher = stronger binding
Sequence: GGTTGGTGTGGTTGG
For `2'F-ANA at 1 2 6 9 10 11 13 14 15`, “mean fluorescence intensity” read 123 a.u.
Under “mean fluorescence intensity”, `2'F-ANA at 2 3 4 7 8 11 13 15` is recorded as 535 a.u.
`2'F-ANA at 2 5 6 7 11 12 13`: “mean fluorescence intensity” 88.9 a.u.
Under “mean fluorescence intensity”, `2'F-ANA at 4 5 7 8 10 11 12 13` is recorded as 93.3 a.u.
`2'F-ANA at 2 10 11 12 14 15` — result for “mean fluorescence intensity”: 117 a.u.
`2'F-ANA at 2 4 6 7 8 13 14 15`: “mean fluorescence intensity” 90.7 a.u.
For `2'F-ANA at 3 5 8 9 11 14 15`, “mean fluorescence intensity” read 59 a.u.
For `2'F-ANA at 2 7 9 11 12 13 14`, “mean fluorescence intensity” read 168 a.u.

Set 3
Target: Histone acetyltransferase KAT6A, winged helix 2, GST fusion (KAT6A, Homo sapiens, UniProt Q92794, residues 85-181)
Method: protein binding microarray
Molecule type: double-stranded DNA, one strand shown
Matrix: in vitro
Tested at: not given
Notes: 8-mer, flanks averaged, mean of 2 arrays, mostly near background
Relative to: not given
Direction: higher = stronger binding
Construct (chain): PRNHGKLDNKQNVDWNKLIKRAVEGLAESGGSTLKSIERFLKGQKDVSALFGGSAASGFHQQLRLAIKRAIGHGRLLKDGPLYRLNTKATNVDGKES
The E-score of `CTTATGGA` is reported as -0.0913.
With `AGCCTACC` the E-score was -0.188.
`AAGCATGG` gave an E-score of -0.0116.
The E-score of `GGACAGTA` is reported as 0.0709.
The E-score of `CATTACAG` is reported as -0.126.
The E-score of `CTAACAGC` is reported as 0.0409.

Mixed results
`PhoQ, residues 284 288 289 292 302 303 SLANKL` gave a fold induction of 7.67 (PhoP, residues 12 14 15 18 19 LWHVM (Escherichia coli, UniProt P23836); Sort-seq, refers to: YFP reporter; E. coli; PhoQ-PhoP variant library, together with: 10 µM Mg2+; relative to: high Mg2+ state, higher = stronger signaling).

A few entries again (set 3):
With `AGCCTACC` the E-score was -0.188.
